Assay results from different studies.
Numbered parts are unrelated; each lists some results of a single study. Values joined by “and” are separate records of one study, mostly repeats; a detail may differ.
Sequence of UniProt P06213 (whole entry, looked up): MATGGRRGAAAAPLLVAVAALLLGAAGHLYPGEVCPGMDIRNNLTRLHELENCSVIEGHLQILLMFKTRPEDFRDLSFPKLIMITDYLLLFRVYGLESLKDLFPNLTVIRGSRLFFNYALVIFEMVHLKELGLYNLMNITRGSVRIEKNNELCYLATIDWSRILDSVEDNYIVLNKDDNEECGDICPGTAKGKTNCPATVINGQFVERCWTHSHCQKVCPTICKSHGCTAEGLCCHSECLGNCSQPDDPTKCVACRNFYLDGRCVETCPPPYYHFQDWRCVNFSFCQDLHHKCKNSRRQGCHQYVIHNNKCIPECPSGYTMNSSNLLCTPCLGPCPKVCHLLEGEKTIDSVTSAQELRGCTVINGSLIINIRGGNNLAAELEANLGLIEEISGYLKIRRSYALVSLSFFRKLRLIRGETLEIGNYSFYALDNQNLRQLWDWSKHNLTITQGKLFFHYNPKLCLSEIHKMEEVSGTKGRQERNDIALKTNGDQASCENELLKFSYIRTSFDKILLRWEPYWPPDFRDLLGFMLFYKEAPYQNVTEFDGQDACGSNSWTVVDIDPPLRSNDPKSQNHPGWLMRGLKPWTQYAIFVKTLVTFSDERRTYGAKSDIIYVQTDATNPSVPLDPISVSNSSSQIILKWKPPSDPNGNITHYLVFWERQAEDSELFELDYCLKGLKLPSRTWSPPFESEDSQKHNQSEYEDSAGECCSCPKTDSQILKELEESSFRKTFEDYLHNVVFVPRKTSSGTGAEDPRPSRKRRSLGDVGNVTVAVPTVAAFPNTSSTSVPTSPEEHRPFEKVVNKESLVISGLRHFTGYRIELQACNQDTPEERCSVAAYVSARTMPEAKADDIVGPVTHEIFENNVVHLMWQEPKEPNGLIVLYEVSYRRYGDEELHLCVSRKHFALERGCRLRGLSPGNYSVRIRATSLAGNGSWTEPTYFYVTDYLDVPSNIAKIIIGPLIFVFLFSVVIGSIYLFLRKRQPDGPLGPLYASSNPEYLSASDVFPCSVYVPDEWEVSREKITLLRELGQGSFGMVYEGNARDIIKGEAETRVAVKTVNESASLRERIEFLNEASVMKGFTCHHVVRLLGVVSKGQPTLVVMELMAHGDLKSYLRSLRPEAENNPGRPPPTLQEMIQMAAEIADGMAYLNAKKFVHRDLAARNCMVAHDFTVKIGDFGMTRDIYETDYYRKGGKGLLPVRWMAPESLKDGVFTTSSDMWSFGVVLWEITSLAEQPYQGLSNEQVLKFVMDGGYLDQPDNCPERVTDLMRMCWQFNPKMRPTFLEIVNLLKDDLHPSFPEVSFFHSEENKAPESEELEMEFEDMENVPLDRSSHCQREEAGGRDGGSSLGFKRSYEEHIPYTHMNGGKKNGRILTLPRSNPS

Study 1
Target: Angiopoietin-1 receptor (TEK, Homo sapiens, UniProt Q02763)
Sequence of UniProt Q02763 (whole entry, looked up): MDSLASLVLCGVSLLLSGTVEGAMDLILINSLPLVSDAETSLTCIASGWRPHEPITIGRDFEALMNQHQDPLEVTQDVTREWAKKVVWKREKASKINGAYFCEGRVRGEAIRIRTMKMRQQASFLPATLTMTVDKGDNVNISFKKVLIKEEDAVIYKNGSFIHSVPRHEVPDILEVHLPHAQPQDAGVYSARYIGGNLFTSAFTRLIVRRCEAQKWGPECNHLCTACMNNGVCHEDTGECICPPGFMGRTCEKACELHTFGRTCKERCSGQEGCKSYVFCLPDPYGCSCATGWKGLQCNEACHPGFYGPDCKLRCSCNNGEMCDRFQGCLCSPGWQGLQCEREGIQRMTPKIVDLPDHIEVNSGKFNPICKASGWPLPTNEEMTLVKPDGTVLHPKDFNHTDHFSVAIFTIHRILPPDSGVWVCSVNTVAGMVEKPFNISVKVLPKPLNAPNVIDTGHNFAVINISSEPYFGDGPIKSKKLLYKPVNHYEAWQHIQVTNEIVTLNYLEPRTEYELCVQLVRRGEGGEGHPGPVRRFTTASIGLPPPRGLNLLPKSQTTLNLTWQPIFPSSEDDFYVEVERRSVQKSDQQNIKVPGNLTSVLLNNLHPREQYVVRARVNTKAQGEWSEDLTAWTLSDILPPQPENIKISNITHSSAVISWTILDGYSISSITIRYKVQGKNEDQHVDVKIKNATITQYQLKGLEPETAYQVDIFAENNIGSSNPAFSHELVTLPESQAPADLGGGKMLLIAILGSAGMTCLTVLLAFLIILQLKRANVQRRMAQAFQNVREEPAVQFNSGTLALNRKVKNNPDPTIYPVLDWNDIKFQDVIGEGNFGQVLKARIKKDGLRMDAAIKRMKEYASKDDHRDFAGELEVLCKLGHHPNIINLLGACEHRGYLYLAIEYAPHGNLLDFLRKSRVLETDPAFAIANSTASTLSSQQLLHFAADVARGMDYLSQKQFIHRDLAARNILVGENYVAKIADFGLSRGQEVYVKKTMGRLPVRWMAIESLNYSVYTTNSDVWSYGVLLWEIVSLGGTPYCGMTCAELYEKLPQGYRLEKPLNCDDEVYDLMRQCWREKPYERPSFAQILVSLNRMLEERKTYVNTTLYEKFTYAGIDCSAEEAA
Read-out: enzyme activity
Mode: inhibitor
Tested at: 0.5 µM
Reference: control
Nc1[nH]nc2nc3ccccc3nc12 has a remaining activity of 97%.
COc1ccc(CNC(=O)Nc2ncc([N+](=O)[O-])s2)cc1 has a remaining activity of 94%.
With CN(C)c1ccc(C=C2C(=O)Nc3ccccc32)cc1 the remaining activity was 102%.
For Cc1cccc(-c2[nH]c(C(C)(C)C)nc2-c2ccc3c(c2)OCO3)n1, the remaining activity was 95.2%.
For CO[C@H]1C[C@@H]2CC[C@@H](C)[C@@](O)(O2)C(=O)C(=O)N2CCCC[C@H]2C(=O)O[C@H]([C@H](C)C[C@@H]2CC[C@@H](O)[C@H](OC)C2)CC(=O)[C@H](C)/C=C(\C)[C@@H](O)[C@@H](OC)C(=O)[C@H](C)C[C@H](C)/C=C/C=C/C=C/1C, the remaining activity was 97.6%.
Cc1nc(-c2ccccc2)c(-c2ccncc2)o1 has a remaining activity of 101%.
With COc1cc2ncnc(Nc3ccc(F)c(Cl)c3)c2cc1OCCCN1CCOCC1 the remaining activity was 96.2%.
O=C1NC(=O)C(c2cn(CCCO)c3ncccc23)=C1c1cnccn1 gave a remaining activity of 103%.
The remaining activity of O=C(CCCc1ccc(-c2ccccc2F)cc1)Nc1ccc(O)cc1 is reported as 101%.
For O=C1NC(=O)C(c2cn(CCCn3ccnc3)c3ccccc23)=C1Nc1ccccc1, the remaining activity was 92.3%.
COc1cc2ncnc(Nc3ccc(Oc4ccccc4)cc3)c2cc1OC gave a remaining activity of 99.7%.
COc1cc2nccc(Oc3ccc(NC(=S)NC(=O)c4ccccc4C)cc3)c2cc1OC has a remaining activity of 90.1%.
CC(C)[C@H](CO)Nc1nc(Nc2cc(N)cc(Cl)c2)c2ncn(C(C)C)c2n1 has a remaining activity of 92.5%.
For Nc1ncnc2n[nH]c(Nc3ccc(F)cc3)c12, the remaining activity was 94.9%.

Study 2
Target: DNA polymerase theta, ATPase domain (POLQ, Homo sapiens, UniProt O75417)
Sequence of UniProt O75417 (whole entry, unmodified, looked up): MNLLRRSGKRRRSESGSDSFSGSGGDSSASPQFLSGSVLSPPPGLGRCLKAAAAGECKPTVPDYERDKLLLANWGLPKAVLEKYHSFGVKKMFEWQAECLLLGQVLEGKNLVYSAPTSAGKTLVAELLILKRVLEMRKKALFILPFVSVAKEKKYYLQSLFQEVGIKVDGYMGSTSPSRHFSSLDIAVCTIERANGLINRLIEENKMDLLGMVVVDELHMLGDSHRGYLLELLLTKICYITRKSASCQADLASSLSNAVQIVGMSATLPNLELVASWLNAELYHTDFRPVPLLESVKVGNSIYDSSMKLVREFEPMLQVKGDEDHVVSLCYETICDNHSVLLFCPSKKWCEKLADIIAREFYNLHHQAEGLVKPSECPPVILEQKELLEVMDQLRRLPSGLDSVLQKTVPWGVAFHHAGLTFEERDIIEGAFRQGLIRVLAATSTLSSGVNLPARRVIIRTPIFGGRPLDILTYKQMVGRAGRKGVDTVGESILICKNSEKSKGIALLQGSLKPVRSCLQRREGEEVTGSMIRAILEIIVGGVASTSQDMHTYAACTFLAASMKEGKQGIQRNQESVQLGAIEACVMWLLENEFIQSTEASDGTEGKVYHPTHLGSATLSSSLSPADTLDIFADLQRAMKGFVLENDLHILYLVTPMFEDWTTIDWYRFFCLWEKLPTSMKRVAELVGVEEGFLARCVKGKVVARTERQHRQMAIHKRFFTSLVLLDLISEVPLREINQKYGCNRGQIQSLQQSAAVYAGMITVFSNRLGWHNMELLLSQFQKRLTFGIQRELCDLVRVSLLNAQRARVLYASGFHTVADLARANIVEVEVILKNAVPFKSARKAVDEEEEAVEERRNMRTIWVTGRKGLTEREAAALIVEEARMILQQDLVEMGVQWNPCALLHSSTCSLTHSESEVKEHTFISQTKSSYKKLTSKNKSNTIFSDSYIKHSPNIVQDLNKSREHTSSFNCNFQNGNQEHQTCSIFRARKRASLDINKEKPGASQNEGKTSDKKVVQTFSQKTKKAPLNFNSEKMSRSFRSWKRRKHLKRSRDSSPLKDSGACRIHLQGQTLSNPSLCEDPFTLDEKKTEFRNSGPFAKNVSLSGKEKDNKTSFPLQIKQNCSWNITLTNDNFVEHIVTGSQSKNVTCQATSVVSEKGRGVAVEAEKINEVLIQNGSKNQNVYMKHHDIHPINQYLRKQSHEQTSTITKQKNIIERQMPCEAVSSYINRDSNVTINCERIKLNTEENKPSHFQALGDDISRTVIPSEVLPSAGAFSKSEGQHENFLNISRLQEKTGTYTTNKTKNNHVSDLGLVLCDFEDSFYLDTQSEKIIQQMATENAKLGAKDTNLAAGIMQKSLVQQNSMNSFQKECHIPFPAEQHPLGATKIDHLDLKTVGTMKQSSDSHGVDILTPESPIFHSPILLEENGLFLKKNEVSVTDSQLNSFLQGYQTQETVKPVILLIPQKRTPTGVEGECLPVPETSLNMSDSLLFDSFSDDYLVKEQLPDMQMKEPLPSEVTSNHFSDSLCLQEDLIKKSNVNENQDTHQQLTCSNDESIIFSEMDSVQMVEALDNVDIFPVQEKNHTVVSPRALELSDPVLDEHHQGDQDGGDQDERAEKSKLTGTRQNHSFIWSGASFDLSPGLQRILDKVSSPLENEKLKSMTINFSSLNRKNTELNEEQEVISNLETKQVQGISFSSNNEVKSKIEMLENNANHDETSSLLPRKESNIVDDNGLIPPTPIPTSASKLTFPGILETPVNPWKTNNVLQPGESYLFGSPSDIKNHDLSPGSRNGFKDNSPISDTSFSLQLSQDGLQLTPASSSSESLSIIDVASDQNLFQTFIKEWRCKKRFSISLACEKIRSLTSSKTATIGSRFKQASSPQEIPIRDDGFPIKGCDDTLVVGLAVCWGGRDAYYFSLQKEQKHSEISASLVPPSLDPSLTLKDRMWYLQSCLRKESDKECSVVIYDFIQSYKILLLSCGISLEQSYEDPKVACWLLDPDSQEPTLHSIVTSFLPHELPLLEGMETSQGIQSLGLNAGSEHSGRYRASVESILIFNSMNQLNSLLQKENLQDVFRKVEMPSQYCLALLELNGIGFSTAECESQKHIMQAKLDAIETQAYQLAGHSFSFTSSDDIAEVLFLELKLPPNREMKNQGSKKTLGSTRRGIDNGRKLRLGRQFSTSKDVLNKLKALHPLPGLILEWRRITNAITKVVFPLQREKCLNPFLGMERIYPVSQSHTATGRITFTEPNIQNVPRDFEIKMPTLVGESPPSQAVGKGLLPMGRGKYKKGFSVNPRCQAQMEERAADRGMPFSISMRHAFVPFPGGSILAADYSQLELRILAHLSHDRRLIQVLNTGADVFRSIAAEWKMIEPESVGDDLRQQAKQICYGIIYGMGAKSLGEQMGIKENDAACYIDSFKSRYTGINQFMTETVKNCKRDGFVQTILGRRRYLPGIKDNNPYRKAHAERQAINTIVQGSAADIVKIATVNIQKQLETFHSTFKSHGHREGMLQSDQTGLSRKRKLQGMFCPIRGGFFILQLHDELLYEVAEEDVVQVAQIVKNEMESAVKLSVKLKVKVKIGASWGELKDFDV
Read-out: enzyme activity
Mode: inhibitor
Tested at: 77 µM
Reference: untreated
With Nc1nc(O)c(C2=C3C(=Nc4ccccc43)C(=O)NCC2)[nH]1 the remaining activity was 104%.
With CC(=O)N(O)CCCCCNC(=O)CCC(=O)N(O)CCCCCNC(=O)CCC(=O)N(O)CCCCCN the remaining activity was 96.7%.
N[C@@H](Cc1c[nH]c2ccccc12)C(=O)O has a remaining activity of 96.4%.
The remaining activity of CC(C)N1CCN(c2ccc(OC[C@H]3CO[C@](Cn4cncn4)(c4ccc(Cl)cc4Cl)O3)cc2)CC1 (racemic) is reported as 110%.
For Cn1c(Nc2ccc(C(F)(F)F)cc2)nc2cc(Oc3ccnc(-c4ncc(C(F)(F)F)[nH]4)c3)ccc21, the remaining activity was 98.2%.
For CC[C@H]1OC(=O)[C@H](C)[C@@H](O[C@H]2C[C@@](C)(OC)[C@@H](O)[C@H](C)O2)[C@H](C)[C@@H](O[C@@H]2O[C@H](C)C[C@H](N(C)C)[C@H]2O)[C@](C)(O)C[C@@H](C)CN(C)[C@H](C)[C@@H](O)[C@]1(C)O, the remaining activity was 101%.
NC1(C(=O)O)CCCCC1 gave a remaining activity of 102%.
For CSc1nc2cc(Cl)c(Oc3cccc(Cl)c3Cl)cc2[nH]1, the remaining activity was 96.2%.
CN(C)CCc1c[nH]c2ccc(C[C@H]3COC(=O)N3)cc12 has a remaining activity of 103%.
CN(C)CCc1c[nH]c2ccc(CS(=O)(=O)N3CCCC3)cc12 gave a remaining activity of 81.9%.
O=C1Cc2c([nH]c3ccc(Br)cc23)-c2ccccc2N1 gave a remaining activity of 100% and 105%.
CCN(CC)CCCCCCCCOC(=O)c1cc(OC)c(OC)c(OC)c1 gave a remaining activity of 88.5%.

Study 3
Cell line: A-375
Tested at: 100 µM
Time: 18 h
CC(C)C[C@H](NC(=O)[C@H](CCc1ccccc1)NC(=O)CN1CCOCC1)C(=O)N[C@@H](Cc1ccccc1)C(=O)N[C@@H](CC(C)C)C(=O)[C@@]1(C)CO1 gave a viability of 16.2%.
OC[C@H]1O[C@@H](c2ccc(Cl)c(Cc3ccc(O[C@H]4CCOC4)cc3)c2)[C@H](O)[C@@H](O)[C@@H]1O gave a viability of 100%.
CC(C)[C@H](NC(=O)[C@H](CC(=O)O)NC(=O)[C@H](CCCCN)NC(=O)[C@@H](N)CCCN=C(N)N)C(=O)N[C@@H](Cc1ccc(O)cc1)C(=O)O gave a viability of 96.7%.
For O=C1C(O)=C([C@H]2CC[C@H](c3ccc(Cl)cc3)CC2)C(=O)c2ccccc21, the viability was 20.8%.
C[C@@H]1O[C@@H](OC[C@H]2O[C@@H](Oc3c(-c4ccc(OCCO)c(OCCO)c4)oc4cc(OCCO)cc(O)c4c3=O)[C@H](O)[C@@H](O)[C@@H]2O)[C@H](O)[C@H](O)[C@H]1O gave a viability of 72.6%.
Cc1c(-c2ccccc2)oc2c(C(=O)OCCN3CCCCC3)cccc2c1=O has a viability of 18.9%.
Cc1cn([C@H]2O[C@@H](CO)[C@H](O)[C@H]2F)c(=O)[nH]c1=O gave a viability of 100%.
O=C(Nc1ncc([N+](=O)[O-])s1)c1ccccc1O gave a viability of 56.7%.
Oc1c(I)cc(Cl)c2cccnc12 has a viability of 35.2%.
COC(=O)C1=C(C)NC(C)=C(C(=O)OC(C)C)C1c1cccc2nonc12 (stereo not drawn) gave a viability of 42.2%.
With N#CC1(c2ccc(NC(=O)c3cccnc3NCc3ccncc3)cc2)CCCC1 the viability was 63.1%.
With OC1(c2ccc(Cl)c(C(F)(F)F)c2)CCN(CCCC(c2ccc(F)cc2)c2ccc(F)cc2)CC1 the viability was 10.1%.
For C#C[C@]1(O)CC[C@H]2[C@@H]3CCc4cc(OC)ccc4[C@H]3CC[C@@]21C, the viability was 18.7%.

Study 4
Structure (SMILES): O=c1nc(-c2ccccn2)sc2ccccc12
Tested at: 1 µM
GRK3 (Homo sapiens, UniProt P35626); binding, competition with immobilised ligand — remaining binding: 51%.
The remaining binding was 89% (PDGFRA (Homo sapiens, UniProt P16234); cell-free assay, competition with immobilised ligand).
The remaining binding was 100% (ULK2 (Homo sapiens, UniProt Q8IYT8); binding, competition with immobilised ligand).
WEE2 (Homo sapiens, UniProt P0C1S8); binding, competition with immobilised ligand — remaining binding: 100%.
CDKL5 (Homo sapiens, UniProt O76039); binding, competition with immobilised ligand — remaining binding: 100%.
Insulin receptor (INSR, Homo sapiens, UniProt P06213); cell-free assay, competition with immobilised ligand — remaining binding: 100%.
PRKCE (Homo sapiens, UniProt Q02156); cell-free assay, competition with immobilised ligand — remaining binding: 100%.
For STK32A (Homo sapiens, UniProt Q8WU08); binding, competition with immobilised ligand: remaining binding read 100%.
The remaining binding was 80% (CDC42BPG (Homo sapiens, UniProt Q6DT37); competition binding).

For quick reference, copied from above (study 2):
CCN(CC)CCCCCCCCOC(=O)c1cc(OC)c(OC)c(OC)c1 gave a remaining activity of 88.5%.
CN(C)CCc1c[nH]c2ccc(CS(=O)(=O)N3CCCC3)cc12 gave a remaining activity of 81.9%.
With CC(=O)N(O)CCCCCNC(=O)CCC(=O)N(O)CCCCCNC(=O)CCC(=O)N(O)CCCCCN the remaining activity was 96.7%.
N[C@@H](Cc1c[nH]c2ccccc12)C(=O)O has a remaining activity of 96.4%.
For CC[C@H]1OC(=O)[C@H](C)[C@@H](O[C@H]2C[C@@](C)(OC)[C@@H](O)[C@H](C)O2)[C@H](C)[C@@H](O[C@@H]2O[C@H](C)C[C@H](N(C)C)[C@H]2O)[C@](C)(O)C[C@@H](C)CN(C)[C@H](C)[C@@H](O)[C@]1(C)O, the remaining activity was 101%.
For Cn1c(Nc2ccc(C(F)(F)F)cc2)nc2cc(Oc3ccnc(-c4ncc(C(F)(F)F)[nH]4)c3)ccc21, the remaining activity was 98.2%.
CN(C)CCc1c[nH]c2ccc(C[C@H]3COC(=O)N3)cc12 has a remaining activity of 103%.
